Assay results from different studies.
Each line is one published result; not all experiments were run side by side. Values joined by “and” are separate records of one study, mostly repeats; a detail may differ. Values after ≈ are worked out from the molar mass of the structure shown.

SMILES | organism | test | test system | conditions | how to read | measurement | result
CO/N=C(\C(=O)N[C@@H]1C(=O)N2C(C(=O)O)=C(CSC(=O)c3ccco3)CS[C@H]12)c1csc(N)n1 | Staphylococcus aureus |  | CAAS-2019-19 clinical blaZ-resistant isolate, PBS |  |  | MBC | 32 µg/mL
CS(=O)(=O)CCCn1c(Cn2c(=O)n(CC(F)(F)F)c3ccncc32)cc2cc(Cl)ccc21 | respiratory syncytial virus | RT-qPCR | hospitalized infants 1-24 months, nasal swab | oral, 1-9 mg/kg daily, day 5, all doses combined | relative to: placebo | LS mean difference vs placebo | -1.05 log10 copies/mL
N=C(N)NCCC[C@H](NC(=O)[C@H](Cc1c[nH]c2ccccc12)NC(=O)[C@H](CCCNC(=N)N)NC(=O)[C@H](Cc1c[nH]c2ccccc12)NC(=O)[C@H](Cc1c[nH]c2ccccc12)NC(=O)[C@H](Cc1c[nH]c2ccccc12)NC(=O)[C@H](CCCNC(=N)N)NC(=O)[C@H](Cc1c[nH]c2ccccc12)NC(=O)[C@@H](N)CCCNC(=N)N)C(=O)N[C@@H](Cc1c[nH]c2ccccc12)C(N)=O | Candida albicans | broth microdilution | alveolar fluid isolate, RPMI 1640-MOPS | 48 h, 30 °C |  | MIC | 16 µM (≈ 28.1 µg/mL)
CCCC(CCC)C(=O)Nc1ccccc1O | Artemia franciscana | LC-MS/MS metabolomics, item: 1-aminocyclopropanecarboxylic acid | larvae | concentration not given, 48 h | relative to: vehicle | fold change | 1.01
Nc1ncnc2c1ncn2[C@@H]1O[C@@H]2COP(=O)(O)O[C@H]3[C@@H](O)[C@H](n4cnc5c(=O)[nH]cnc54)O[C@@H]3COP(=O)(O)O[C@H]2[C@H]1O | West Nile virus | RNA sequencing, item: purinergic signaling leishmaniasis infection R-HSA-9660826 | HFF-1 cells | concentration not given, upregulated pathway | relative to: WNV-infected untreated cells | fold enrichment | 7.08
COC(=O)N[C@H](C(=O)N1CCC[C@H]1c1ncc(-c2ccc(-c3ccc(-c4cnc([C@@H]5CCCN5C(=O)[C@@H](NC(=O)OC)C(C)C)[nH]4)cc3)cc2)[nH]1)C(C)C | hepatitis C virus | HCV replicon |  | 75% effect level, with: IFN-α, ratio 1:1 |  | combination index | 0.73 and 0.63
Nc1ccn([C@@H]2O[C@H](CO)[C@@H](O)C2(F)F)c(=O)n1 | human alphaherpesvirus 1 |  | primary human fibroblasts, K26 GFP |  | relative to: CC50 over IC50 | selectivity index | > 1200
COC(=O)C1=C(C)NC(C)=C(C(=O)OC(C)(C)CN(C)CCC(c2ccccc2)c2ccccc2)C1c1cccc([N+](=O)[O-])c1 (centres unmarked) | Aspergillus fumigatus | Alamar blue |  | 20 µM, 48 h |  | metabolic activity | 100%
CC[C@H](C)[C@H](NC(=O)[C@H](CCCNC(=N)N)NC(=O)[C@H](Cc1c[nH]c2ccccc12)NC(=O)[C@H](CCCNC(=N)N)NC(=O)[C@H](Cc1c[nH]c2ccccc12)NC(=O)[C@H](Cc1c[nH]c2ccccc12)NC(=O)[C@H](Cc1c[nH]c2ccccc12)NC(=O)[C@H](CCCNC(=N)N)NC(=O)[C@H](Cc1c[nH]c2ccccc12)NC(=O)[C@H](CCCNC(=N)N)NC(=O)CN)C(N)=O | Candida albicans | broth microdilution | CGMCC 2.209, RPMI 1640-MOPS | 48 h, 30 °C, with: NH4Cl 6 µM |  | MIC | 8 µM (≈ 13.9 µg/mL)
COc1cc(F)c(F)c(Nc2ccc(I)cc2F)c1NS(=O)(=O)C1(C[C@H](O)CO)CC1 | Aspergillus fumigatus |  |  | 20 µM | relative to: untreated | metabolic activity | ≥ 80%
N=C(N)NCCC[C@H](NC(=O)CN)C(=O)N[C@@H](Cc1c[nH]c2ccccc12)C(=O)N[C@@H](CCCNC(=N)N)C(=O)N[C@@H](Cc1c[nH]c2ccccc12)C(=O)N[C@@H](Cc1c[nH]c2ccccc12)C(=O)N[C@@H](Cc1c[nH]c2ccccc12)C(=O)N[C@@H](CCCNC(=N)N)C(=O)N[C@@H](Cc1c[nH]c2ccccc12)C(=O)N[C@@H](CCCNC(=N)N)C(=O)N[C@@H](Cc1ccccc1)C(N)=O | Candida parapsilosis | broth microdilution | CGMCC 2.399, RPMI 1640-MOPS | 48 h, 30 °C |  | MIC | 8 µM (≈ 14.2 µg/mL)
O=C(O)[C@@H]1[O][Sb](=[O])([O][Sb]2(=[O])[O][C@H]([C@H](O)CO)[C@H](O)[C@H](C(=O)O)[O]2)[O][C@H]([C@H](O)CO)[C@@H]1O.[Na+].[Na+].[Na+] (some centres unmarked) | Leishmania mexicana | parasite growth, propidium iodide flow cytometry | promastigotes | 48 h |  | IC50 | 346 µM
COc1cc(Nc2ccnc3ccc(Br)cc23)cc(OC)c1OC | murine hepatitis virus | viral replication, nanoluciferase reporter | DBT | 1 µM, 10 h | relative to: DMSO vehicle | inhibition | 4%
C[C@H]1c2cccc(O)c2C(=O)C2=C(O)[C@]3(O)C(=O)C(C(N)=O)=C(O)[C@@H](N(C)C)[C@@H]3[C@@H](O)[C@@H]21 | Enterococcus faecalis and Enterococcus faecium |  |  |  |  | MIC90 | 16 µg/mL (≈ 36 µM)
Cc1cnc(-c2cc(Cl)ccc2F)cc1-n1c(=O)n(CC(N)=O)c2cnccc21 | murine hepatitis virus | viral replication, nanoluciferase reporter | DBT | 1 µM, 10 h | relative to: DMSO vehicle | inhibition | 28%
N=C(N)NCCC[C@H](NC(=O)[C@H](Cc1c[nH]c2ccccc12)NC(=O)[C@H](CCCNC(=N)N)NC(=O)[C@H](Cc1c[nH]c2ccccc12)NC(=O)[C@H](Cc1c[nH]c2ccccc12)NC(=O)[C@H](Cc1c[nH]c2ccccc12)NC(=O)[C@H](CCCNC(=N)N)NC(=O)[C@H](Cc1c[nH]c2ccccc12)NC(=O)[C@H](CCCNC(=N)N)NC(=O)CN)C(N)=O | Candida albicans | broth microdilution | CGMCC 2.209, RPMI 1640-MOPS | 48 h, 30 °C, with: NH4Cl 6 µM |  | MIC | 4 µM (≈ 6.52 µg/mL)

SMILES | organism | test | test system | conditions | how to read | measurement | result
O=C(Nc1ccc2[nH]nc(-c3ccncc3)c2c1)[C@@H]1CCN(CC(=O)N2CCN(c3ccc(-c4ncccn4)cc3)CC2)C1 | Aspergillus fumigatus |  |  | 20 µM | relative to: untreated | metabolic activity | ≥ 80%
COc1c([N+](=O)[O-])oc2ccc3ccccc3c12 | Mycobacterium avium subsp. hominissuis | REMA | ATCC 25291 |  |  | MIC90 | > 32 µg/mL
C[C@H](NC(=O)[C@H](CCCNC(=N)N)NC(=O)[C@H](Cc1c[nH]c2ccccc12)NC(=O)[C@H](CCCNC(=N)N)NC(=O)[C@H](Cc1c[nH]c2ccccc12)NC(=O)[C@H](Cc1c[nH]c2ccccc12)NC(=O)[C@H](Cc1c[nH]c2ccccc12)NC(=O)[C@H](CCCNC(=N)N)NC(=O)[C@H](Cc1c[nH]c2ccccc12)NC(=O)[C@H](CCCNC(=N)N)NC(=O)CN)C(N)=O | Candida albicans | broth microdilution | 14936, RPMI 1640-MOPS | 48 h, 30 °C |  | MIC | 8 µM (≈ 13.6 µg/mL)
CN1CCN(Cc2cc(NC(=O)c3ccc4c(c3)CN(c3ccccc3)CC4)cc(C(F)(F)F)c2)CC1 | murine hepatitis virus | viral replication, nanoluciferase reporter | DBT | 1 µM | relative to: DMSO vehicle | inhibition | 5%
COc1ccc2c(ccc3oc([N+](=O)[O-])cc32)c1 | Mycobacterium avium subsp. hominissuis | REMA | ATCC 25291 |  |  | MIC90 | 0.25 µg/mL (≈ 1.03 µM)
Cn1cc(C2=C(c3cn(C4CCN(Cc5ccccn5)CC4)c4ccccc34)C(=O)NC2=O)c2ccccc21 | murine hepatitis virus | viral replication, nanoluciferase reporter | DBT | 1 µM, 10 h | relative to: DMSO vehicle | inhibition | 37%
Nc1ncnc2c([C@@H]3N[C@H](CO)[C@@H](O)[C@H]3O)c[nH]c12 | Measles morbillivirus | viral replication | Vero 76, Chicago | 0.9 µM |  | inhibition | 5%
CC(=O)NCC(=O)N1[C@@H]2CC[C@H]1c1ccc(Nc3ncc(C(F)(F)F)c(NC4CCC4)n3)cc12 | murine hepatitis virus | viral replication, nanoluciferase reporter | DBT | 1 µM | relative to: DMSO vehicle | inhibition | 58%
Fc1ccc(-c2nn3ccccc3c2-c2ccncc2)cc1 | Aspergillus fumigatus |  |  | 20 µM | relative to: untreated | metabolic activity | ≥ 80%
O=C(O)[C@]1(Cc2cccc(Nc3nccs3)n2)CC[C@@H](Oc2cccc(Cl)c2F)CC1 | murine hepatitis virus | viral replication, nanoluciferase reporter | DBT | 1 µM, 10 h | relative to: DMSO vehicle | inhibition | 9%
O=[N+]([O-])c1cc2c(ccc3cc(Br)ccc32)o1 | Enterobacter cloacae | REMA |  |  |  | MIC90 | > 32 µg/mL
CC(=O)O[C@H]1C[C@H](O[C@H]2[C@@H](O)C[C@H](O[C@H]3[C@@H](O)C[C@H](O[C@H]4CC[C@@]5(C)[C@H](CC[C@@H]6[C@@H]5C[C@@H](O)[C@]5(C)[C@@H](C7=CC(=O)OC7)CC[C@]65O)C4)O[C@@H]3C)O[C@@H]2C)O[C@H](C)[C@H]1O[C@@H]1O[C@H](CO)[C@@H](O)[C@H](O)[C@H]1O | human alphaherpesvirus 1 |  | primary human keratinocytes, K26 GFP |  | relative to: CC50 over IC50 | selectivity index | 3.67
Cc1cccc(-c2cnc3occ(-c4ccc(C(=O)O)c(C5CCCC5)c4)c3c2)c1 | murine hepatitis virus | viral replication, nanoluciferase reporter | DBT | 1 µM, 10 h | relative to: DMSO vehicle | inhibition | 15%
C#Cc1ccc(O)c(C=NNC(=O)c2ccc(Br)cc2)c1 | Aspergillus fumigatus |  | 293 | unit not given, with: voriconazole | lower = more synergy | FICI | 2
CO[C@H]1/C=C/O[C@@]2(C)Oc3c(C)c(O)c4c(O)c(c(/C=N/N5CCN(C)CC5)c(O)c4c3C2=O)NC(=O)/C(C)=C\C=C\[C@H](C)[C@H](O)[C@@H](C)[C@@H](O)[C@@H](C)[C@H](OC(C)=O)[C@@H]1C | Mycobacterium avium subsp. hominissuis | REMA | ATCC 25291 |  |  | MIC90 | 0.05 µg/mL (≈ 0.0608 µM)
CN1CCC(COc2cnc(-c3cccc(Cn4nc(-c5cccc(C#N)c5)ccc4=O)c3)nc2)CC1 | murine hepatitis virus | viral replication, nanoluciferase reporter | DBT | 1 µM, 10 h | relative to: DMSO vehicle | inhibition | 27%
